# Assay results of several laboratories.
# Parts stem from different laboratories: compare values within a part only. Substitutions count along the parent as printed.
# UniProt Q9UF33, sequence (whole entry, looked up): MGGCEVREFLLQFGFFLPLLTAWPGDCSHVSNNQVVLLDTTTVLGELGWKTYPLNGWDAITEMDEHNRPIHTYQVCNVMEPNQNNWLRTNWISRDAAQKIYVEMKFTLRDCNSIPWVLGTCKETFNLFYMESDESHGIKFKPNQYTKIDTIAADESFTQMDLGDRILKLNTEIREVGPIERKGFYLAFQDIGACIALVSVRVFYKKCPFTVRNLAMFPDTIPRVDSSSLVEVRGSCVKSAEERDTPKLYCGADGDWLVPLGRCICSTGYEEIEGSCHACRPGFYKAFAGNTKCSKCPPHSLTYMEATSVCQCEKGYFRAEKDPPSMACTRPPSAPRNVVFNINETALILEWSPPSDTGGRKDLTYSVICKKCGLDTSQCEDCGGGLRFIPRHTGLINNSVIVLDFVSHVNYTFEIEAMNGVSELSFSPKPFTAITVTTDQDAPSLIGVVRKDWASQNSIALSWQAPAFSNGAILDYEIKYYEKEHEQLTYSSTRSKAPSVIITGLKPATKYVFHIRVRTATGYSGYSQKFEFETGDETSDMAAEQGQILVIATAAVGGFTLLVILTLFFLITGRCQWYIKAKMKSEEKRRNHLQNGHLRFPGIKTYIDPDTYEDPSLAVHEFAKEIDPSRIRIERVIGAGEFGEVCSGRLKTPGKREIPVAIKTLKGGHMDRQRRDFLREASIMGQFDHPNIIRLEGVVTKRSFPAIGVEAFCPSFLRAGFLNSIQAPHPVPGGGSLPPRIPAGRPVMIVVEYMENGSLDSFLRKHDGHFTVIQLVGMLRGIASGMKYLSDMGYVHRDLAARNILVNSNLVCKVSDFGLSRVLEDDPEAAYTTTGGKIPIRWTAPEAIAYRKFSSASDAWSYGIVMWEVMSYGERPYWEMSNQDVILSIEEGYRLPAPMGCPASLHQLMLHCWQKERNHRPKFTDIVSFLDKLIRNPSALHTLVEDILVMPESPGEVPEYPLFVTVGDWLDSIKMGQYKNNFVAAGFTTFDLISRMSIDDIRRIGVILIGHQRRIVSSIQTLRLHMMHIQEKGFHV
# UniProt Q13164, sequence (whole entry, looked up): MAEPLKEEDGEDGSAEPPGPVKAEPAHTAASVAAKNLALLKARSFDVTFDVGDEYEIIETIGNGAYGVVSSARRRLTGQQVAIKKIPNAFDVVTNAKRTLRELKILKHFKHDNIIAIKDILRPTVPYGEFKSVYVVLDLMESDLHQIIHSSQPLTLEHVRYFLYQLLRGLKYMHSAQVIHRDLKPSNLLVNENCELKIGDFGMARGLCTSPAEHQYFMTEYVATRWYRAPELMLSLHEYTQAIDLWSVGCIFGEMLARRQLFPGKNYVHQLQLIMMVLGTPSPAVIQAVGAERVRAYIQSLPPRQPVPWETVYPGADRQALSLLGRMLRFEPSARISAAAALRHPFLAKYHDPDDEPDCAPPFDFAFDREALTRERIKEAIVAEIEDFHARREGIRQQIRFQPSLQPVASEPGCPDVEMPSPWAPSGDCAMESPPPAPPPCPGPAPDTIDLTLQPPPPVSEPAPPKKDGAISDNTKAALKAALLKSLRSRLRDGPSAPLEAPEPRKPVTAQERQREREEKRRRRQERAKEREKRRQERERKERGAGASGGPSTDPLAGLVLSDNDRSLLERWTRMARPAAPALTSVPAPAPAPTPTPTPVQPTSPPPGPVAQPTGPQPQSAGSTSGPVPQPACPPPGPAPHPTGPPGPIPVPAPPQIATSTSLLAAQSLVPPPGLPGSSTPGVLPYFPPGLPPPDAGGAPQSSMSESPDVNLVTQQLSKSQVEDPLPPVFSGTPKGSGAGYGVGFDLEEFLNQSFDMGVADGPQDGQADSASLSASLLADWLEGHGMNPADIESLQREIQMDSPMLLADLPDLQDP
# UniProt Q9BXA7, sequence (whole entry, looked up): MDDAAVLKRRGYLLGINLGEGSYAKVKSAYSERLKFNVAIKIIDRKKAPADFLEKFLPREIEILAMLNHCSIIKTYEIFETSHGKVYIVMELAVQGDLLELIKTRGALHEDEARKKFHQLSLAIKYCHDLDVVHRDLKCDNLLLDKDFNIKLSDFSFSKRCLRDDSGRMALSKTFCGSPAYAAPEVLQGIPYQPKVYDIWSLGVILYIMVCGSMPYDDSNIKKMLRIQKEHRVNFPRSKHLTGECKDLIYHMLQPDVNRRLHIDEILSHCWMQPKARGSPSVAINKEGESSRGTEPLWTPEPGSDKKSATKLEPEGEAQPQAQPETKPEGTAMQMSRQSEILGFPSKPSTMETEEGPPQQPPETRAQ
# UniProt P27448, sequence (whole entry, looked up): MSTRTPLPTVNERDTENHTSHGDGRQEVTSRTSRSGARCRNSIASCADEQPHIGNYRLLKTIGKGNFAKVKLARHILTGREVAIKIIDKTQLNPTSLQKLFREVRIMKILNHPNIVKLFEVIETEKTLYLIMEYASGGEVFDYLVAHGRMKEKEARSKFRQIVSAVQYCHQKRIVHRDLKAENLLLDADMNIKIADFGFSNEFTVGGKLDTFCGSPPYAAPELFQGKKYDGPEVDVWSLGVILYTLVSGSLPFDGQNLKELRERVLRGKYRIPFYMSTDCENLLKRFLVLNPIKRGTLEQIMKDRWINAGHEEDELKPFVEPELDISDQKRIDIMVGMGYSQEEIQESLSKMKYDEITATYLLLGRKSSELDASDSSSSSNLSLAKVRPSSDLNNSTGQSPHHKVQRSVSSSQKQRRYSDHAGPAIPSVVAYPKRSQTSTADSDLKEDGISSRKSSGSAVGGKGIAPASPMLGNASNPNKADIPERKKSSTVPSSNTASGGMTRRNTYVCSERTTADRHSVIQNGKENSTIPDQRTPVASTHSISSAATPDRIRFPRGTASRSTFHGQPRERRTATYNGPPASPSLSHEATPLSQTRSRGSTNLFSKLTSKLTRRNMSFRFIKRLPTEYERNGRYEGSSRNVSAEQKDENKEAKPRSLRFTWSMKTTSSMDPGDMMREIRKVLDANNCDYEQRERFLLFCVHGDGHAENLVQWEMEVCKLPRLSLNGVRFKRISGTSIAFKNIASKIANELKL
# UniProt Q9P1W9, sequence (whole entry, looked up): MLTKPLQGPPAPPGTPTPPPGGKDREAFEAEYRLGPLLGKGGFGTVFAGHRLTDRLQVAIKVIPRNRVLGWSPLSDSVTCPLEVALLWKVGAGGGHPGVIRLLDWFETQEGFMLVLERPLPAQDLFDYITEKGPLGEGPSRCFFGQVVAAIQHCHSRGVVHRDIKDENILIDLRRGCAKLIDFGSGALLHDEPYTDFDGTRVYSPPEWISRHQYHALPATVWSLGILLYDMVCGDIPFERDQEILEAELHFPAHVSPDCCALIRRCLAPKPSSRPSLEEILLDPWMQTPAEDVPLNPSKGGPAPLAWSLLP
# UniProt Q9FKM7, sequence (whole entry, looked up): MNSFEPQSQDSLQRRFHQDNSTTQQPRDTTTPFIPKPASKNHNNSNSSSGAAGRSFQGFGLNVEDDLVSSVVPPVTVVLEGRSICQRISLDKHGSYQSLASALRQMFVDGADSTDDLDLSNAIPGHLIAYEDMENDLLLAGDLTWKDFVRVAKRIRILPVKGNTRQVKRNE
# UniProt P07949, sequence (whole entry, unmodified, looked up): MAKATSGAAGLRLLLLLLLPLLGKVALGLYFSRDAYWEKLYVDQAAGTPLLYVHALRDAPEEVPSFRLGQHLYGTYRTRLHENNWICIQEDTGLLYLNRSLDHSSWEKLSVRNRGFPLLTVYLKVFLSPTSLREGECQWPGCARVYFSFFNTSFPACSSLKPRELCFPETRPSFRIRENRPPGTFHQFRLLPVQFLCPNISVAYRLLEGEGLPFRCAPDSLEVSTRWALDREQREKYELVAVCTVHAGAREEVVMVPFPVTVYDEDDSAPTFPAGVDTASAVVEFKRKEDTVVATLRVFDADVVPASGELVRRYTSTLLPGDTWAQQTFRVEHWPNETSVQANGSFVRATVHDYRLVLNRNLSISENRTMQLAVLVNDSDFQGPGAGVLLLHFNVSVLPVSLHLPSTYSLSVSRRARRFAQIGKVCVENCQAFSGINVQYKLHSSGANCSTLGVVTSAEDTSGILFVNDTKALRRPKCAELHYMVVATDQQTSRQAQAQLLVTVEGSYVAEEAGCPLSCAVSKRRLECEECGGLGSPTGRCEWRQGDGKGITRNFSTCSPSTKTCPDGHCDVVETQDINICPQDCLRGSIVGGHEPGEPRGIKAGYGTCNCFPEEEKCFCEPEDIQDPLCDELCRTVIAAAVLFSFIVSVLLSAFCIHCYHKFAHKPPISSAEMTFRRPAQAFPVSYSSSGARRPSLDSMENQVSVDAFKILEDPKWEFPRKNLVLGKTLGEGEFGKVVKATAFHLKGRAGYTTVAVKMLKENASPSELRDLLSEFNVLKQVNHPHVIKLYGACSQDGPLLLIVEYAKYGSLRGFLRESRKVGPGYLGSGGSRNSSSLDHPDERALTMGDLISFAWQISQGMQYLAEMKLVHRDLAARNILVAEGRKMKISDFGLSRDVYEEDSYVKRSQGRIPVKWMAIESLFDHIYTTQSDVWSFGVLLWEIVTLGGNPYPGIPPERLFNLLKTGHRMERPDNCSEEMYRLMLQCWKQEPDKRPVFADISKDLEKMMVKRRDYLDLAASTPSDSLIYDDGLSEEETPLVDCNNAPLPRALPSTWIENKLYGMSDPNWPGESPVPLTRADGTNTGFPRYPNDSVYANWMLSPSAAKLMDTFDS

# Sample 1
# Molecule: B1 (IAA19)
# Method: two-hybrid
# Reading: higher = firmer interaction
# B1: IAA19 (Arabidopsis thaliana, UniProt O24409); chain MEKEGLGLEITELRLGLPGRDVAEKMMKKRAFTEMNMTSSGSNSDQCESGVVSSGGDAEKVNDSPAAKSQVVGWPPVCSYRKKNSCKEASTTKVGLGYVKVSMDGVPYLRKMDLGSSQGYDDLAFALDKLFGFRGIGVALKDGDNCEYVTIYEDKDGDWMLAGDVPWGMFLESCKRLRIMKRSDATGFGLQPRGVDE
partner,baseline,positive tests
"ARF11 500-622 (Arabidopsis thaliana, UniProt Q9ZPY6)",out of 4 tests,0
"IAA28 (Arabidopsis thaliana, UniProt Q9XFM0)",out of 2 tests,2
"ETT (Arabidopsis thaliana, UniProt O23661)",out of 4 tests,0
"IAA33 (Arabidopsis thaliana, UniProt Q9FKM7)",out of 4 tests,1

# Sample 2
# Target: Death-associated protein kinase 3 (DAPK3, Homo sapiens, UniProt O43293)
# UniProt O43293, sequence (whole entry, looked up): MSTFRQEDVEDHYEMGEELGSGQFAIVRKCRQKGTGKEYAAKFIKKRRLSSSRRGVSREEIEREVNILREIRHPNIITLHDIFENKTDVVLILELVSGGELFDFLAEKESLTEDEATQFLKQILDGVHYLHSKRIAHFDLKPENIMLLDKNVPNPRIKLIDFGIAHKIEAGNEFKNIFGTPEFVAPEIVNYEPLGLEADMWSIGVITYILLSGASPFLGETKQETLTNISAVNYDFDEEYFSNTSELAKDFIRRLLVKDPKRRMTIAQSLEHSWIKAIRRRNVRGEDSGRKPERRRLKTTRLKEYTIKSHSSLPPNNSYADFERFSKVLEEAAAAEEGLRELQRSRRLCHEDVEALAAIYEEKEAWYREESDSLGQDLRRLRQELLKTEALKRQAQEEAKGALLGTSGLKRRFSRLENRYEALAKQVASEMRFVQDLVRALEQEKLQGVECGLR
# Read-out: enzyme activity
# Mode: inhibitor
# Tested at: 0.5 µM
# Baseline: control
Compound,remaining activity
CO[C@H]1C[C@@H]2CC[C@@H](C)[C@@](O)(O2)C(=O)C(=O)N2CCCC[C@H]2C(=O)O[C@H]([C@H](C)C[C@@H]2CC[C@@H](O)[C@H](OC)C2)CC(=O)[C@H](C)/C=C(\C)[C@@H](O)[C@@H](OC)C(=O)[C@H](C)C[C@H](C)/C=C/C=C/C=C/1C,104%
Nc1ncnc2n[nH]c(Nc3ccc(F)cc3)c12,124%
COc1ccc(C(=O)Nc2sc3c(c2C(N)=O)CCCC3)cc1OC,102%
Cn1sc(=O)n(Cc2ccccc2)c1=O,103%
CC(C)[C@H](CO)Nc1nc(Nc2cc(N)cc(Cl)c2)c2ncn(C(C)C)c2n1,96.7%
CN(C)c1ccc(C=C2C(=O)Nc3ccccc32)cc1,101%
N#CC(C#N)=C(N)/C(C#N)=C/c1ccc(O)cc1,91.1%
OCC(O)CCON=C1C(c2c(O)[nH]c3ccccc23)=Nc2ccccc21 (stereo not drawn),66.6%
COc1cc2ncnc(Nc3ccc(Oc4ccccc4)cc3)c2cc1OC,96.9%
COc1ccc(CNC(=O)Nc2ncc([N+](=O)[O-])s2)cc1,106%
Nc1[nH]nc2nc3ccccc3nc12,98.2%
O=C(CCCc1ccc(-c2ccccc2F)cc1)Nc1ccc(O)cc1,104%
O=C(O)c1ccc2c3c1cccc3c(=O)n1c3ccccc3nc21,51.3%
COc1cc2nccc(Oc3ccc(NC(=S)NC(=O)c4ccccc4C)cc3)c2cc1OC,75.4%

# Sample 3
# Target: ABI1, truncated, D143A, DHFR fusion (Arabidopsis thaliana)
# Method: DHFR PCA, deep sequencing
# Sample: yeast
# Setting: methotrexate growth selection, single substitutions
# Together with: (+)-ABA 200 µM
# Baseline: wild-type fitted maximum
# Reading: higher = stronger binding
# Starting sequence: PYL1, truncated, DHFR fusion (Arabidopsis thaliana); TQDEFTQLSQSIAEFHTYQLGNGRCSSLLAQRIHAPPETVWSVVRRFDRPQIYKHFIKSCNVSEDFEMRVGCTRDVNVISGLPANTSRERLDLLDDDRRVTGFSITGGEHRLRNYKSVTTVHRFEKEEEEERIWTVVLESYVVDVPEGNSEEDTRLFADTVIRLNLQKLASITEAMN
Change,relative binding score [%]
I105R,-11.1
L138D,7.38
F5S,90
E67T,102
S59Q,96.8
V78S,55.2
L20W,92.3
F103W,65.2

# Sample 4
# Structure (SMILES): Cc1cc(-n2nc(Cc3cc(F)cc(C(F)(F)F)c3)nc2C)ccc1C(N)=O
# Method: competition with immobilised ligand
# Tested at: 1 µM
target,read-out,remaining binding
"Testis-specific serine/threonine-protein kinase 1 (TSSK1B, Homo sapiens, UniProt Q9BXA7)",cell-free assay,90%
"Serine/threonine-protein kinase WNK2 (WNK2, Homo sapiens, UniProt Q9Y3S1)",cell-free assay,100%
"Tyrosine-protein kinase BTK (BTK, Homo sapiens, UniProt Q06187)",cell-free assay,100%
"Serine/threonine-protein kinase 33 (STK33, Homo sapiens, UniProt Q9BYT3)",cell-free assay,100%
"Proto-oncogene tyrosine-protein kinase receptor Ret (RET, Homo sapiens, UniProt P07949, V804L)",cell-free assay,100%
"Non-receptor tyrosine-protein kinase TYK2, JH2 (TYK2, Homo sapiens, UniProt P29597)",cell-free assay,100%
"Ephrin type-A receptor 6 (EPHA6, Homo sapiens, UniProt Q9UF33)",cell-free assay,100%
"MAP/microtubule affinity-regulating kinase 3 (MARK3, Homo sapiens, UniProt P27448)",cell-free assay,100%
"Mitogen-activated protein kinase 7 (MAPK7, Homo sapiens, UniProt Q13164)",cell-free assay,100%
"Tyrosine-protein kinase ABL1, phosphorylated (ABL1, Homo sapiens, UniProt P00519, E255K)",binding,93%
"Misshapen-like kinase 1 (MINK1, Homo sapiens, UniProt Q8N4C8)",cell-free assay,93%
"Hormonally up-regulated neu tumor-associated kinase (HUNK, Homo sapiens, UniProt P57058)",cell-free assay,89%
"Serine/threonine-protein kinase D1 (PRKD1, Homo sapiens, UniProt Q15139)",cell-free assay,92%
"Dual specificity mitogen-activated protein kinase kinase 5 (MAP2K5, Homo sapiens, UniProt Q13163)",cell-free assay,100%
"Phosphorylase b kinase gamma catalytic chain, skeletal muscle/heart isoform (PHKG1, Homo sapiens, UniProt Q16816)",cell-free assay,98%
"Serine/threonine-protein kinase PAK 6 (PAK6, Homo sapiens, UniProt Q9NQU5)",cell-free assay,100%
"Serine/threonine-protein kinase Nek1 (NEK1, Homo sapiens, UniProt Q96PY6)",cell-free assay,54%
"Ribosomal protein S6 kinase alpha-5, N-terminal kinase domain (RPS6KA5, Homo sapiens, UniProt O75582)",cell-free assay,88%
"Serine/threonine-protein kinase pim-2 (PIM2, Homo sapiens, UniProt Q9P1W9)",cell-free assay,83%
"Mitogen-activated protein kinase kinase kinase 9 (MAP3K9, Homo sapiens, UniProt P80192)",cell-free assay,100%
"Calcium/calmodulin-dependent protein kinase kinase 1 (CAMKK1, Homo sapiens, UniProt Q8N5S9)",cell-free assay,100%
"Serine/threonine-protein kinase 25 (STK25, Homo sapiens, UniProt O00506)",cell-free assay,89%

# Repeated from above (sample 4):
target,read-out,remaining binding
"Testis-specific serine/threonine-protein kinase 1 (TSSK1B, Homo sapiens, UniProt Q9BXA7)",cell-free assay,90%
"Serine/threonine-protein kinase WNK2 (WNK2, Homo sapiens, UniProt Q9Y3S1)",cell-free assay,100%
"Tyrosine-protein kinase BTK (BTK, Homo sapiens, UniProt Q06187)",cell-free assay,100%
"Serine/threonine-protein kinase 33 (STK33, Homo sapiens, UniProt Q9BYT3)",cell-free assay,100%
